{"data": "Results collected from several papers", "note": "Parts stem from different laboratories: compare values within a part only. Changes are numbered by the printed parent chain.", "UniProt P36897, sequence (whole entry, looked up)": "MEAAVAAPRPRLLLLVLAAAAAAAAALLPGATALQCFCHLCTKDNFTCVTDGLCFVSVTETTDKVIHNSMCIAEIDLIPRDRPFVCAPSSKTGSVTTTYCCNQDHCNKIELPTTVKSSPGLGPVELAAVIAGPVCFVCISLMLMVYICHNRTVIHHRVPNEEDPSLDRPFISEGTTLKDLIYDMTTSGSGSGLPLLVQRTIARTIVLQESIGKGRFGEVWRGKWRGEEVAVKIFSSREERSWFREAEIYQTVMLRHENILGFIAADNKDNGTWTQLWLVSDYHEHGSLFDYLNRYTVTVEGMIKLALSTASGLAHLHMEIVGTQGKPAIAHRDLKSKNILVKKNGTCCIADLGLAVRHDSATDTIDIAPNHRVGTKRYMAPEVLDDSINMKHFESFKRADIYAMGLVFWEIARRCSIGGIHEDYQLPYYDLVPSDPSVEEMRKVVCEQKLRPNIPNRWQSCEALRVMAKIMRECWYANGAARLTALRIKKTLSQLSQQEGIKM", "UniProt Q13557, sequence (whole entry, looked up)": "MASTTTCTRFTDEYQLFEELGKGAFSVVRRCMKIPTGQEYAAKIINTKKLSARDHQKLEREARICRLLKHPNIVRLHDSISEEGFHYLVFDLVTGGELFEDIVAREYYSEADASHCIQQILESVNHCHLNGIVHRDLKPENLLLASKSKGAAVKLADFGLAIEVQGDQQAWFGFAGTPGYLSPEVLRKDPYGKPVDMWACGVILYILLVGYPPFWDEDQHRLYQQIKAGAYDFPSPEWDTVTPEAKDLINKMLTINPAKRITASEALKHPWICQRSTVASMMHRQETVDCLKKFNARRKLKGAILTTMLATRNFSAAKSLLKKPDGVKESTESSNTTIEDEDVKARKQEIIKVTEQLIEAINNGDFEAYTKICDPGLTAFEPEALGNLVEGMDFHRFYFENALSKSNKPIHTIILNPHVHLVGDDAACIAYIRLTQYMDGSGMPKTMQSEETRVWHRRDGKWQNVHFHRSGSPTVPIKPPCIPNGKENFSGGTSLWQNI", "UniProt Q99558, sequence (whole entry, looked up)": "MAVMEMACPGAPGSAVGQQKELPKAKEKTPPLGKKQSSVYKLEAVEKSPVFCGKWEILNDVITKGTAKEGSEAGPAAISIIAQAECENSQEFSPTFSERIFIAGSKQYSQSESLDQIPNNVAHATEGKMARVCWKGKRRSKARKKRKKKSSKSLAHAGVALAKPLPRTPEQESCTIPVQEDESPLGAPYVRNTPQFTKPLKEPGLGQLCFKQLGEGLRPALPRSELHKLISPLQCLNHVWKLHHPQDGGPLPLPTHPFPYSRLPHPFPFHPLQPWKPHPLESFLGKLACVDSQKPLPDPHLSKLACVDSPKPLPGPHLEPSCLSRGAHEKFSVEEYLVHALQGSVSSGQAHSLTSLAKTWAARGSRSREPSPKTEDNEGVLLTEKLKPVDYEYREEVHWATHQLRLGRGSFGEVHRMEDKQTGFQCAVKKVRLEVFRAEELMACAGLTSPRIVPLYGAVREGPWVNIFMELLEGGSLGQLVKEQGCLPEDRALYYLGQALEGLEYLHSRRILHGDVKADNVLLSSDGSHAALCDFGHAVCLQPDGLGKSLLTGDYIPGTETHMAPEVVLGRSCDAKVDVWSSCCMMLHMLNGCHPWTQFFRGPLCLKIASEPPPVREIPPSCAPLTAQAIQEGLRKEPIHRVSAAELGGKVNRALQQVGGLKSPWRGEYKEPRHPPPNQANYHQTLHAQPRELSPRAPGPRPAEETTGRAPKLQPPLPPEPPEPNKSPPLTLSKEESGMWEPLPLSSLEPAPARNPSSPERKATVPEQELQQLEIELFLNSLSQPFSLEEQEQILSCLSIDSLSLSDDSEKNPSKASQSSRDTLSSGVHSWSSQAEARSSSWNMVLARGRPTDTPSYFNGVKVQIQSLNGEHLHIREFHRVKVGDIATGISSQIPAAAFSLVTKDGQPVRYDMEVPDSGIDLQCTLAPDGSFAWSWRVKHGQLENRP", "UniProt P29320, sequence (whole entry, looked up)": "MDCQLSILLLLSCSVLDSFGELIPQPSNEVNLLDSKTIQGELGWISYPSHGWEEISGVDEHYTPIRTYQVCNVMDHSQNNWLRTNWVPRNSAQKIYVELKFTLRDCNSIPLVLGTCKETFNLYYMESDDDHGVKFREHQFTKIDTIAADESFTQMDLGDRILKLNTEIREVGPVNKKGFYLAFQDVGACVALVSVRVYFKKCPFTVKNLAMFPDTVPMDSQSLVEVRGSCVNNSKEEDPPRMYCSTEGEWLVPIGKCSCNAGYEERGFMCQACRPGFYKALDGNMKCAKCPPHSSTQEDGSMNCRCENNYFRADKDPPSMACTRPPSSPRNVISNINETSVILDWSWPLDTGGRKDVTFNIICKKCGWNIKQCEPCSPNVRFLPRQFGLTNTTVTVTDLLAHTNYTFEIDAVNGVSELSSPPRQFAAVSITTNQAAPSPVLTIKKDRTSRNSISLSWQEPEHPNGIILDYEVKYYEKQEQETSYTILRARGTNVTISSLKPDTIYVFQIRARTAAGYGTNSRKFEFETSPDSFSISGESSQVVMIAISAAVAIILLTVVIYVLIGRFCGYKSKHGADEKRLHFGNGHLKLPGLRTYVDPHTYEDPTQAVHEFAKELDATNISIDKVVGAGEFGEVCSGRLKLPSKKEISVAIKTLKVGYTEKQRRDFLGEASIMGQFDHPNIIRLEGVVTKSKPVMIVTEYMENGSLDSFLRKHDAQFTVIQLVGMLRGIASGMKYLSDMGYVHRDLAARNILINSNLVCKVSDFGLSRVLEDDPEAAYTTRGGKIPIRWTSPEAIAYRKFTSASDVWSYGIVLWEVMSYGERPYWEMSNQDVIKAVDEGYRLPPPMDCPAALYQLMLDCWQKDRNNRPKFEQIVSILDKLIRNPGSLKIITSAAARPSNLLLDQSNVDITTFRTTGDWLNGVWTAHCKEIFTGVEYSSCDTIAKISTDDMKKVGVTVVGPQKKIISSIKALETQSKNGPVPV", "UniProt O14920, sequence (whole entry, looked up)": "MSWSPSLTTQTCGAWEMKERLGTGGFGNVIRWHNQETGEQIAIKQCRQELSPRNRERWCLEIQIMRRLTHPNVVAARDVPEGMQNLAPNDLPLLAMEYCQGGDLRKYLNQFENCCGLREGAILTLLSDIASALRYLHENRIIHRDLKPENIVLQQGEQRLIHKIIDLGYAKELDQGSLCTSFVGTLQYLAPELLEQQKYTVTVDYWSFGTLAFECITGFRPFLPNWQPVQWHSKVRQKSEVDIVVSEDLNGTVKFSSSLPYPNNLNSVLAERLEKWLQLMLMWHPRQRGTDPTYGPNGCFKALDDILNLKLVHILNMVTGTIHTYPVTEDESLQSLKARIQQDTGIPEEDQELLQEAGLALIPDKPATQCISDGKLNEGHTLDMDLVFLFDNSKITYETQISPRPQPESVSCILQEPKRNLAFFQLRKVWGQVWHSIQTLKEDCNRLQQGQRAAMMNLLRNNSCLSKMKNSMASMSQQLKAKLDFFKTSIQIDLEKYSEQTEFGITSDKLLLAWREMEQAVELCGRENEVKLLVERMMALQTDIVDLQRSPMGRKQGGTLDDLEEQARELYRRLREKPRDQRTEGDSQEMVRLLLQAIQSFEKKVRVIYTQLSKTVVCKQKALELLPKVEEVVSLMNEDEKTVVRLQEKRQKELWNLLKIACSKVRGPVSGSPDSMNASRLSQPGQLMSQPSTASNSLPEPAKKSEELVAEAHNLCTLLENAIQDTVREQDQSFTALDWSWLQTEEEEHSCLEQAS", "UniProt Q9UL54, sequence (whole entry, looked up)": "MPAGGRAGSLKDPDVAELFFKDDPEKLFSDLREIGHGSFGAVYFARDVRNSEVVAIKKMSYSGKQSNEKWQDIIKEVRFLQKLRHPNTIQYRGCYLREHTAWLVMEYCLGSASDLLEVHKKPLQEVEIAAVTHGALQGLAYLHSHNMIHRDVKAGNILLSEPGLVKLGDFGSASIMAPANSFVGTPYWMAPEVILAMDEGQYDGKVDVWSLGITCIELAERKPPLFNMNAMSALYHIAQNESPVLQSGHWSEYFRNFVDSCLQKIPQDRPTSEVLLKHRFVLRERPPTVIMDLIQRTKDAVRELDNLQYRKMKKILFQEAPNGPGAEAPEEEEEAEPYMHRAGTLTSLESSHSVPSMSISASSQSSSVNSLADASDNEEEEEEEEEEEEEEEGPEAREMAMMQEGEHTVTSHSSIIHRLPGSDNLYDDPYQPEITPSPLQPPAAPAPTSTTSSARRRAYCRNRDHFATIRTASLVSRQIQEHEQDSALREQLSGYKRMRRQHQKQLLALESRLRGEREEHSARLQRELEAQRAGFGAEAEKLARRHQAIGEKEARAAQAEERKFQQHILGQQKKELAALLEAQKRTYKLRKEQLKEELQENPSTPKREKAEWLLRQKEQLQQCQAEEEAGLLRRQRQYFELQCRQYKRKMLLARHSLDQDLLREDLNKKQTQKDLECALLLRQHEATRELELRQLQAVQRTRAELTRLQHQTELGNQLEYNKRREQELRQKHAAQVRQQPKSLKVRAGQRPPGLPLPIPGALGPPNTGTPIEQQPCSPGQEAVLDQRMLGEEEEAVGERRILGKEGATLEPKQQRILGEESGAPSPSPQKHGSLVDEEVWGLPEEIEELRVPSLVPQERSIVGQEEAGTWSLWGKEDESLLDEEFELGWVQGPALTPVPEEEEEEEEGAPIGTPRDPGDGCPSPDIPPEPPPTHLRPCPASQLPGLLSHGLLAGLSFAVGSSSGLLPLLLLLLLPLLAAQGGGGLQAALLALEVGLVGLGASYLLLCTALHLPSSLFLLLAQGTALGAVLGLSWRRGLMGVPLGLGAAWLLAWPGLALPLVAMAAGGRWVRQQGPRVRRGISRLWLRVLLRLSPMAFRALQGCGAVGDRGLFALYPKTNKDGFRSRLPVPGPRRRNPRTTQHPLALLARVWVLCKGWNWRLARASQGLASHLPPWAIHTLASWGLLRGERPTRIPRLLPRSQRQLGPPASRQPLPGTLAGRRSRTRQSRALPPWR"}
{"data": "Study 1", "SMILES": "CC(C)(C)n1nc(Cc2cccc3ccccc23)c2c(N)ncnc21", "read-out": "enzyme activity", "mode": "inhibitor", "tested at": "0.5 µM", "reference": "control"}
{"target": "Serine/threonine-protein kinase Nek2 (NEK2, Homo sapiens, UniProt P51955)", "remaining activity": "98.4%"}
{"target": "Inhibitor of nuclear factor kappa-B kinase subunit beta (IKBKB, Homo sapiens, UniProt O14920)", "remaining activity": "97.3%"}
{"target": "TGF-beta receptor type-1 (TGFBR1, Homo sapiens, UniProt P36897)", "remaining activity": "102%"}
{"target": "cAMP-dependent protein kinase catalytic subunit alpha (PRKACA, Homo sapiens, UniProt P17612)", "remaining activity": "54.3%"}
{"target": "Serine/threonine-protein kinase 10 (STK10, Homo sapiens, UniProt O94804)", "remaining activity": "81.1%"}
{"target": "Inhibitor of nuclear factor kappa-B kinase subunit epsilon (IKBKE, Homo sapiens, UniProt Q14164)", "remaining activity": "98.3%"}
{"target": "Calcium/calmodulin-dependent protein kinase type II subunit delta (CAMK2D, Homo sapiens, UniProt Q13557)", "remaining activity": "94.1%"}
{"target": "cGMP-dependent protein kinase 1, isoform beta (PRKG1, Homo sapiens, UniProt Q13976)", "remaining activity": "110%"}
{"target": "Serine/threonine-protein kinase STK11 (STK11, Homo sapiens, UniProt Q15831)", "remaining activity": "53.4%"}
{"target": "Serine/threonine-protein kinase OSR1 (OXSR1, Homo sapiens, UniProt O95747)", "remaining activity": "94.7%"}
{"target": "Cyclin-dependent kinase 4, with cyclin D1 (CDK4, Homo sapiens, UniProt P11802)", "remaining activity": "96.7%"}
{"data": "Study 2", "target": "NFE2, bZIP domain (human)", "method": "DHFR protein complementation", "matrix": "yeast", "setting": "single substitutions, most at no-binding floor", "reference": "wild-type JUN-FOS pair", "reading": "higher = stronger binding", "parent": "JUN, bZIP domain (human); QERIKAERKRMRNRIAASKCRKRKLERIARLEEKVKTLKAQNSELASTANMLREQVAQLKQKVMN; partner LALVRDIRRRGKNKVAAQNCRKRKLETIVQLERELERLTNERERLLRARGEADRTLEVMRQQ"}
{"Substitution": "L31P", "binding fitness": "-1.41 natural log"}
{"Substitution": "A29T", "binding fitness": "-1.45 natural log"}
{"Substitution": "E32G", "binding fitness": "-1.45 natural log"}
{"Substitution": "I28R", "binding fitness": "-1.31 natural log"}
{"Substitution": "E44V", "binding fitness": "-1.45 natural log"}
{"Substitution": "E54V", "binding fitness": "-1.31 natural log"}
{"Substitution": "R30W", "binding fitness": "-1.27 natural log"}
{"Substitution": "K39P", "binding fitness": "-1.36 natural log"}
{"data": "Study 3", "Structure (SMILES)": "COCCOc1nc(-c2ccc(Cl)nc2)nc2c1CN(C(=O)c1ncn3ccccc13)CC2", "read-out": "cell-free assay", "method": "competition with immobilised ligand", "tested at": "0.1 µM"}
{"target": "Mitogen-activated protein kinase kinase kinase kinase 3 (MAP4K3, Homo sapiens, UniProt Q8IVH8)", "remaining binding [%]": 100}
{"target": "Dual specificity protein kinase CLK4 (CLK4, Homo sapiens, UniProt Q9HAZ1)", "remaining binding [%]": 100}
{"target": "Serine/threonine-protein kinase SIK3 (SIK3, Homo sapiens, UniProt Q9Y2K2)", "remaining binding [%]": 100}
{"target": "Mitogen-activated protein kinase kinase kinase 14 (MAP3K14, Homo sapiens, UniProt Q99558)", "remaining binding [%]": 100}
{"target": "Tyrosine-protein kinase ABL1, non-phosphorylated (ABL1, Homo sapiens, UniProt P00519, H396P)", "remaining binding [%]": 70}
{"target": "Serine/threonine-protein kinase PAK 4 (PAK4, Homo sapiens, UniProt O96013)", "remaining binding [%]": 100}
{"target": "Ribosomal protein S6 kinase alpha-6, N-terminal kinase domain (RPS6KA6, Homo sapiens, UniProt Q9UK32)", "remaining binding [%]": 100}
{"target": "Serine/threonine-protein kinase tousled-like 1 (TLK1, Homo sapiens, UniProt Q9UKI8)", "remaining binding [%]": 100}
{"target": "Serine/threonine-protein kinase TAO2 (TAOK2, Homo sapiens, UniProt Q9UL54)", "remaining binding [%]": 99}
{"target": "RAF proto-oncogene serine/threonine-protein kinase (RAF1, Homo sapiens, UniProt P04049)", "remaining binding [%]": 97}
{"target": "Receptor-interacting serine/threonine-protein kinase 2 (RIPK2, Homo sapiens, UniProt O43353)", "remaining binding [%]": 100}
{"target": "Mitotic checkpoint serine/threonine-protein kinase BUB1 (BUB1, Homo sapiens, UniProt O43683)", "remaining binding [%]": 82}
{"target": "Misshapen-like kinase 1 (MINK1, Homo sapiens, UniProt Q8N4C8)", "remaining binding [%]": 100}
{"target": "MAP/microtubule affinity-regulating kinase 4 (MARK4, Homo sapiens, UniProt Q96L34)", "remaining binding [%]": 100}
{"target": "Serine/threonine-protein kinase LATS1 (LATS1, Homo sapiens, UniProt O95835)", "remaining binding [%]": 70}
{"target": "Ephrin type-A receptor 3 (EPHA3, Homo sapiens, UniProt P29320)", "remaining binding [%]": 96}
{"target": "TRAF2 and NCK-interacting protein kinase (TNIK, Homo sapiens, UniProt Q9UKE5)", "remaining binding [%]": 100}
{"data": "Study 4", "target": "POU domain, class 6, transcription factor 1, POU and homeodomain (POU6F1, Homo sapiens, UniProt Q14863, residues 311-611)", "method": "protein-binding microarray", "molecule type": "hairpin DNA", "matrix": "in vitro", "tested at": "not given", "setting": "whole hairpin DNA, median over replicate spots", "reference": "not given", "reading": "higher = stronger binding", "constant ends, left off below": "GAGGCCAT … ATGGCCTCACACTCTT", "Residues (chain)": "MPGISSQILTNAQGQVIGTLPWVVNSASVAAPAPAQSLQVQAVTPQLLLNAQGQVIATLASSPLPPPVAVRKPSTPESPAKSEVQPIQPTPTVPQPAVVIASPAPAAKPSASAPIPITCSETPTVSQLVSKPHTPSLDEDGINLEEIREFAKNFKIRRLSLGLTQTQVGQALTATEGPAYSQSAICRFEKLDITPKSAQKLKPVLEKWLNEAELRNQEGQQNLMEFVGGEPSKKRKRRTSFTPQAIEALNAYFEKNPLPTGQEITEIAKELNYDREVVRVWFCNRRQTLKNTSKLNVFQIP"}
{"Sequence": "AATTCGGTGCCTCCTGGCACCGAATT (5mC at 13)", "median fluorescence": "513 a.u."}
{"Sequence": "AATGCGGTGCCTCCTGGCACCGCATT (5mC at 13)", "median fluorescence": "534 a.u."}
{"Sequence": "ACTTAGGTGCCTCCTGGCACCTAAGT (5mC at 10)", "median fluorescence": "408 a.u."}
{"Sequence": "AATTAGGTGCCTCCTGGCACCTAATT (5mC at 29)", "median fluorescence": "1340 a.u."}
{"Sequence": "GATGAGGTGCCTCCTGGCACCTCATC (5mC at 34)", "median fluorescence": "456 a.u."}
{"Sequence": "ACGGAGGTGCCTCCTGGCACCTCCGT (5mC at 10)", "median fluorescence": "337 a.u."}
{"note": "Repeated from above (study 2):"}
{"Substitution": "A29T", "binding fitness": "-1.45 natural log"}
{"Substitution": "R30W", "binding fitness": "-1.27 natural log"}
{"Substitution": "L31P", "binding fitness": "-1.41 natural log"}
{"Substitution": "I28R", "binding fitness": "-1.31 natural log"}
{"Substitution": "E32G", "binding fitness": "-1.45 natural log"}
